Results pooled from the literature.
Each line is one published result; not all experiments were run side by side. Several values in a cell are separate wells, animals, samples, runs or records. Numbers after ± are the reported error.
Ba71V-97 DNA complex: Ba71V-97, DNA complex (African swine fever virus, UniProt P42494)
cya: Calmodulin-sensitive adenylate cyclase (cya, Bacillus anthracis, UniProt P40136)

SMILES = O=S(=O)(O)c1ccc(N=Nc2cc(Oc3ncc(Cl)cc3Cl)ccc2O)cc1; target or system = Ba71V-97 DNA complex; assay = enzyme activity, inhibitor; measurement = IC50; result = 9300 ± 500 nM
SMILES = CC[C@H](C)[C@H](NC(=O)CNC(=O)[C@H](C)NC(=O)[C@H](CCC(=O)O)NC(=O)[C@@H]1CCCN1C(=O)[C@H](CC(=O)O)NC(=O)[C@H](C)NC(=O)[C@H](CCC(=O)O)NC(=O)[C@H](C)N)C(=O)NCC(=O)N[C@@H](C)C(=O)N[C@H](C(=O)N[C@@H](CC(C)C)C(=O)N[C@@H](CCCCN)C(=O)N[C@H](C(=O)N[C@@H](CC(C)C)C(=O)N[C@H](C(=O)N[C@H](C(=O)NCC(=O)N[C@@H](CC(C)C)C(=O)N1CCC[C@H]1C(=O)N[C@@H](C)C(=O)N[C@@H](CC(C)C)C(=O)N[C@H](C(=O)N[C@@H](CO)C(=O)N[C@@H](Cc1c[nH]c2ccccc12)C(=O)N[C@H](C(=O)N[C@@H](CCCCN)C(=O)N[C@@H](CCCNC(=N)N)C(=O)N[C@@H](CCCCN)C(=O)N[C@@H](CCCNC(=N)N)C(=O)N[C@@H](CCC(N)=O)C(=O)N[C@@H](CCC(N)=O)C(N)=O)[C@@H](C)CC)[C@@H](C)CC)[C@@H](C)O)[C@@H](C)O)C(C)C)C(C)C; target or system = human erythrocytes, washed; conditions = 1 h, 37 °C, 2% v/v RBC suspension; measurement = HD50; result = 11.8 ± 0.6 µmol/L
SMILES = Cc1cccc(-c2cc(C#N)cc(Oc3c(C(F)(F)F)ccn(Cc4n[nH]c(=O)n4C)c3=O)c2)c1; target or system = HIV-1; assay = viral cytopathicity; test system = MT4, E138K mutant; measurement = EC50; result = 25 ± 3.3 nM
SMILES = Nc1ccc(Cl)cc1C(=O)NCC(COCP(=O)(O)OP(=O)(O)OP(=O)(O)O)Cn1cnc2c(N)ncnc21 (stereo not drawn); target or system = cya; measurement = IC50; result = 140 ± 15 nM
SMILES = O=c1c(O)c(-c2cc(O)c(O)c(O)c2)oc2cc(O)cc(O)c12; target or system = SARS-CoV-2; assay = cytopathic effect; test system = Vero E6; conditions = 10 µM; measurement = inhibition; result = 1.9%
SMILES = O=C(O)c1ccccc1N=NC(=NNc1cc(S(=O)(=O)O)ccc1O)c1ccccc1; target or system = Ba71V-97 DNA complex; assay = enzyme activity; conditions = 100 µM; measurement = inhibition; result = > 50%
SMILES = CC[C@H](C)[C@H](NC(=O)CNC(=O)[C@H](C)NC(=O)[C@H](CCC(=O)O)NC(=O)[C@@H]1CCCN1C(=O)[C@H](CC(=O)O)NC(=O)[C@H](C)NC(=O)[C@H](CCC(=O)O)NC(=O)[C@H](C)NC(=O)[C@H](CC(=O)O)NC(=O)[C@H](C)N)C(=O)NCC(=O)N[C@@H](C)C(=O)N[C@H](C(=O)N[C@@H](CC(C)C)C(=O)N[C@@H](CCCCN)C(=O)N[C@H](C(=O)N[C@@H](CC(C)C)C(=O)N[C@H](C(=O)N[C@H](C(=O)NCC(=O)N[C@@H](CC(C)C)C(=O)N1CCC[C@H]1C(=O)N[C@@H](C)C(=O)N[C@@H](CC(C)C)C(=O)N[C@H](C(=O)N[C@@H](CO)C(=O)N[C@@H](Cc1c[nH]c2ccccc12)C(=O)N[C@H](C(=O)N[C@@H](CCCCN)C(=O)N[C@@H](CCCNC(=N)N)C(=O)N[C@@H](CCCCN)C(=O)N[C@@H](CCCNC(=N)N)C(=O)N[C@@H](CCC(N)=O)C(=O)N[C@@H](CCC(N)=O)C(N)=O)[C@@H](C)CC)[C@@H](C)CC)[C@@H](C)O)[C@@H](C)O)C(C)C)C(C)C; target or system = human erythrocytes, washed; conditions = 1 h, 37 °C, 2% v/v RBC suspension; measurement = HD50; result = 29.2 ± 1.8 µmol/L
SMILES = Nc1ccc(Cl)cc1C(=O)NC(COCP(=O)(O)OP(=O)(O)OP(=O)(O)O)Cn1cnc2c(N)ncnc21 (stereo not drawn); target or system = cya; measurement = IC50; result = 69 nM and 68.9 nM
SMILES = CCN1/C(=C/C=C2\CCCC(/C=C/C3=[N+](CC)c4ccccc4C3(C)C)=C2NCCCCCCCCN2CCC(Nc3nc4ccccc4n3Cc3ccc(F)cc3)CC2)C(C)(C)c2ccccc21; target or system = U-87 MG; assay = refers to: MARVELD1 mRNA; conditions = concentration not given; how to read = reference: DMSO; measurement = log2 fold change; result = -1.02

A few entries again:
SMILES = CC[C@H](C)[C@H](NC(=O)CNC(=O)[C@H](C)NC(=O)[C@H](CCC(=O)O)NC(=O)[C@@H]1CCCN1C(=O)[C@H](CC(=O)O)NC(=O)[C@H](C)NC(=O)[C@H](CCC(=O)O)NC(=O)[C@H](C)N)C(=O)NCC(=O)N[C@@H](C)C(=O)N[C@H](C(=O)N[C@@H](CC(C)C)C(=O)N[C@@H](CCCCN)C(=O)N[C@H](C(=O)N[C@@H](CC(C)C)C(=O)N[C@H](C(=O)N[C@H](C(=O)NCC(=O)N[C@@H](CC(C)C)C(=O)N1CCC[C@H]1C(=O)N[C@@H](C)C(=O)N[C@@H](CC(C)C)C(=O)N[C@H](C(=O)N[C@@H](CO)C(=O)N[C@@H](Cc1c[nH]c2ccccc12)C(=O)N[C@H](C(=O)N[C@@H](CCCCN)C(=O)N[C@@H](CCCNC(=N)N)C(=O)N[C@@H](CCCCN)C(=O)N[C@@H](CCCNC(=N)N)C(=O)N[C@@H](CCC(N)=O)C(=O)N[C@@H](CCC(N)=O)C(N)=O)[C@@H](C)CC)[C@@H](C)CC)[C@@H](C)O)[C@@H](C)O)C(C)C)C(C)C; target or system = human erythrocytes, washed; conditions = 1 h, 37 °C, 2% v/v RBC suspension; measurement = HD50; result = 11.8 ± 0.6 µmol/L
